Published values gathered from unrelated publications.
Each line is one published result; not all experiments were run side by side.
Organism: Staphylococcus aureus

| SMILES | test | test system | conditions | MIC |
| --- | --- | --- | --- | --- |
| COc1c(NC(=O)c2ccc(NC(=O)c3ccc(NC(=O)[C@H](Cc4c[nH]nn4)NC(=O)c4ccc(NC(=O)/C(C)=C/c5ccc(O)cc5)cc4)cc3)cc2O)ccc(C(=O)O)c1O | broth microdilution | ciprofloxacin-sensitive | – | 32 mg/L |
| CCCCCCCCCCn1cc[n+](CCCCCCOc2cc(OCCCCCC[n+]3ccn(CCCCCCCCCC)c3)cc(OCCCCCC[n+]3ccn(CCCCCCCCCC)c3)c2)c1.[Br-].[Br-].[Br-] | – | HA-MRSA ATCC 33591 | – | 2 µM |
| CC[C@H](C)[C@H](N)C1=N[C@H](C(=O)N[C@@H](CC(C)C)C(=O)N[C@H](CCC(=O)O)C(=O)N[C@H](C(=O)N[C@H]2CCCCNC(=O)[C@H](CC(N)=O)NC(=O)[C@@H](CC(=O)O)NC(=O)[C@H](Cc3c[nH]cn3)NC(=O)[C@@H](Cc3ccccc3)NC(=O)[C@H]([C@@H](C)CC)NC(=O)[C@@H](CCCN)NC2=O)[C@@H](C)CC)CS1 | – | ATCC 29213 MSSA | LB with 0.3 mM ZnSO4 | 1 mg/L |
| CC[C@H]1OC(=O)[C@H](C)[C@@H](OC(=O)Cc2cccc(Cl)c2)[C@H](C)[C@@H](O[C@@H]2O[C@H](C)C[C@H](N(C)C)[C@H]2O)[C@](C)(OC)C[C@@H](C)C(=O)[C@H](C)[C@@H](O)[C@]1(C)O | microbial growth | BAA976 | – | 4 mg/L |
| CN[C@H](CC(C)C)C(=O)N[C@H]1C(=O)N[C@@H](CC(N)=O)C(=O)N[C@H]2C(=O)N[C@H]3C(=O)N[C@H](C(=O)N[C@H](C(=O)N[C@@H](CCCNC(=N)N)C(N)=O)c4cc(O)cc(O)c4-c4cc3ccc4O)[C@H](O)c3ccc(c(Cl)c3)Oc3cc2cc(c3O[C@@H]2O[C@H](CO)[C@@H](O)[C@H](O)[C@H]2O[C@H]2C[C@](C)(NCc3ccc(OCc4cn(CC(=O)N[C@H](C(=O)N[C@@H](CCN)C(=O)N[C@H]5CCNC(=O)[C@H]([C@@H](C)O)NC(=O)[C@H](CCN)NC(=O)[C@H](CCN)NC(=O)[C@H](CC(C)C)NC(=O)[C@@H](CC(C)C)NC(=O)[C@H](CCN)NC5=O)[C@@H](C)O)nn4)c(OC)c3)[C@H](O)[C@H](C)O2)Oc2ccc(cc2Cl)[C@H]1O | broth microdilution | MRSA USA300, cation-adjusted Mueller-Hinton broth | 20 to 24 h, 37 °C, 0.002% polysorbate 80 | 1 mg/L |
| CCOc1c(NC(=O)c2ccc(NC(=O)[C@H](Cc3c[nH]nn3)NC(=O)c3ccc(NC(=O)/C(C)=C/c4ccc(O)cc4)cc3)cc2)ccc(C(=O)Nc2ccc(C(=O)O)c(O)c2OC)c1O | broth microdilution | ciprofloxacin-resistant | – | 0.063 mg/L |
| CCCCCCC#Cc1cncc(-c2nnc(SCc3cc([N+](=O)[O-])cc([N+](=O)[O-])c3)n2C)c1 | microbial growth, broth dilution | MRSA | – | > 64 mg/L |
| Oc1c(Br)cc(Br)c2nc3cc(Cc4ccccc4)ccc3nc12 | – | 147 MRSA clinical isolate | – | 0.39 µM |
| CC[C@H]1OC(=O)[C@H](C)[C@@H](OC(=O)Cc2ccc(Cl)cc2)[C@H](C)[C@@H](O[C@@H]2O[C@H](C)C[C@H](N(C)C)[C@H]2O)[C@](C)(OC)C[C@@H](C)C(=O)[C@H](C)[C@@H](O)[C@]1(C)O | – | DSM 20231 MSSA | – | 8 mg/L |
| CCCCCCCCCC[N+](C)(C)CCCCCCCCOc1cc(OCCCCCCCC[N+](C)(C)CCCCCCCCCC)cc(OCCCCCCCC[N+](C)(C)CCCCCCCCCC)c1.[Br-].[Br-].[Br-] | – | HA-MRSA ATCC 33591 | – | 8 µM |
| CC[C@H]1OC(=O)[C@H](C)[C@@H](OC(=O)Cc2ccc(N)cc2)[C@H](C)[C@@H](O[C@@H]2O[C@H](C)C[C@H](N(C)C)[C@H]2O)[C@](C)(OC)C[C@@H](C)C(=O)[C@H](C)[C@@H](O)[C@]1(C)O | – | DSM 20231 MSSA | – | 4 mg/L |
| CCC(CC)c1cc(CCN2CCCN(S(C)(=O)=O)CC2)nc(-c2ccccn2)n1 | microbial growth, broth dilution | ATCC29213 | – | > 16 mg/L |
| CCCCCCn1cc[n+](CCCCCCOc2cc(OCCCCCC[n+]3ccn(CCCCCC)c3)cc(OCCCCCC[n+]3ccn(CCCCCC)c3)c2)c1.[Br-].[Br-].[Br-] | – | CA-MRSA USA300-0114 | – | 0.5 µM |
| COc1ccc2cc3[n+](cc2c1OC)CCc1cc2c(cc1-3)OCO2.[Cl][Fe-]([Cl])([Cl])[Cl] | – | – | 24 h, 37 °C | 200 µM |
| CCCCCCCCCCCC[N+](C)(C)CCCCOc1cc(OCCCC[N+](C)(C)CCCCCCCCCCCC)cc(OCCCC[N+](C)(C)CCCCCCCCCCCC)c1.[Br-].[Br-].[Br-] | – | CA-MRSA USA300-0114 | – | 2 µM |
| COc1c(C)c(OS(=O)(=O)c2ccccc2)c(C)c(OS(=O)(=O)c2ccccc2)c1C(=O)/C=C/c1ccccc1 | microbial growth, broth dilution | ATCC25923 | – | 5000 mg/L |
| CN[C@H](CC(C)C)C(=O)N[C@H]1C(=O)N[C@@H](CC(N)=O)C(=O)N[C@H]2C(=O)N[C@H]3C(=O)N[C@H](C(=O)N[C@H](C(=O)O)c4cc(O)cc(O)c4-c4cc3ccc4O)[C@H](O)c3ccc(c(Cl)c3)Oc3cc2cc(c3O[C@@H]2O[C@H](CO)[C@@H](O)[C@H](O)[C@H]2O[C@H]2C[C@](C)(NCc3ccc(OCc4cn(CC(=O)N[C@H](C(=O)N[C@@H](CCN)C(=O)N[C@H]5CCNC(=O)[C@H]([C@@H](C)O)NC(=O)[C@H](CCN)NC(=O)[C@H](CCN)NC(=O)[C@H](CC(C)C)NC(=O)[C@@H](CC(C)C)NC(=O)[C@H](CCN)NC5=O)[C@@H](C)O)nn4)c(OC)c3)[C@H](O)[C@H](C)O2)Oc2ccc(cc2Cl)[C@H]1O | broth microdilution | MSSA ATCC 29213, cation-adjusted Mueller-Hinton broth | 20 to 24 h, 37 °C, 0.002% polysorbate 80 | 0.25 mg/L |

| SMILES | test | test system | conditions | MIC |
| --- | --- | --- | --- | --- |
| CCCCC=CC(=O)NC(Cc1cc(F)cc(F)c1)C(=O)NC1COC(=O)C2CCCN2C(=O)C(C)NC(=O)C(C)N(C)C(=O)C2CCCN2C1=O (stereo not drawn) | microbial growth, broth dilution | – | – | 0.78 mg/L |
| CCCCCCCCn1cc[n+](CCCCOc2cc(OCCCC[n+]3ccn(CCCCCCCC)c3)cc(OCCCC[n+]3ccn(CCCCCCCC)c3)c2)c1.[Br-].[Br-].[Br-] | – | HA-MRSA ATCC 33591 | – | 1 µM |
| COc1c(C)c(OS(=O)(=O)c2ccccc2)c(C)c(O)c1C(=O)/C=C/c1ccccc1 | microbial growth, broth dilution | ATCC25923 | – | 5000 mg/L |
| CCCCCCCCCCn1cc[n+](CCCCOc2cc(OCCCC[n+]3ccn(CCCCCCCCCC)c3)cc(OCCCC[n+]3ccn(CCCCCCCCCC)c3)c2)c1.[Br-].[Br-].[Br-] | – | SH1000 MSSA | – | 1 µM |
| COc1cc(C(=O)O)ccc1NC(=O)c1ccc(NC(=O)c2ccc(NC(=O)[C@H](Cc3c[nH]nn3)NC(=O)c3ccc(NC(=O)/C(C)=C/c4ccc(O)cc4)cc3)cc2)c(OC)c1O | broth microdilution | ciprofloxacin-sensitive | – | 2 mg/L |
| CCCCCCCC(=O)N[C@@H](CC(N)=O)C(=O)N[C@H]1CNC(=O)[C@H](c2ccc(O)c(Cl)c2)NC(=O)[C@@H](C)NC(=O)[C@H](CC(C)C)NC(=O)CNC(=O)[C@H](c2ccc(O)cc2)NC(=O)[C@@H]([C@H](C)O)NC(=O)[C@H](c2ccc(O)cc2)NC(=O)[C@@H](CCCN)NC(=O)[C@H](Cc2ccccc2)NC(=O)[C@H]([C@@H](C)O)NC(=O)[C@@H](c2ccc(O)cc2)NC(=O)[C@H](c2ccc(O)cc2)NC(=O)[C@@H]([C@H](C)O)NC(=O)[C@@H](CCCN)NC(=O)[C@@H](c2ccc(F)cc2)NC1=O | – | MSSA ATCC 29213 | – | > 16 µM |
| C[C@@H]1C(=O)O[C@@H](C)/C=C/C=C\[C@@H](C)[C@@H]2C=C[C@@H]3C[C@@]4(C)O[C@H]4[C@@H](C)[C@H]3[C@@H]2C(=O)C(Cl)(Cl)C1=O | – | MRSA clinical isolate | OXA CLI ERY resistant | 0.025 mg/L |
| CC[C@H]1OC(=O)[C@H](C)[C@@H](OC(=O)Cc2ccc(N(C)C)cc2)[C@H](C)[C@@H](O[C@@H]2O[C@H](C)C[C@H](N(C)C)[C@H]2O)[C@](C)(OC)C[C@@H](C)C(=O)[C@H](C)[C@@H](O)[C@]1(C)O | – | DSM 20231 MSSA | – | 32 mg/L |
| COc1nc(C(=O)Nc2ccc(C(=O)O)nc2OC)ccc1NC(=O)c1ccc(NC(=O)[C@H](Cc2c[nH]nn2)NC(=O)c2ccc(NC(=O)/C(C)=C/c3ccc(O)cc3)cc2)cc1 | broth microdilution | ciprofloxacin-sensitive | – | 8 mg/L |
| CC[C@H](C)[C@H](N)C(=O)N1CCC[C@H]1C(=O)N[C@@H](Cc1ccccc1)C(=O)N[C@@H](Cc1c[nH]c2ccccc12)C(=O)N[C@@H](CCCNC(=N)N)C(=O)N[C@@H](Cc1c[nH]c2ccccc12)C(=O)N[C@@H](CC(C)C)C(=O)N[C@@H](CC(C)C)C(=O)N[C@@H](CCC(N)=O)C(=O)N[C@@H](CCCNC(=N)N)C(=O)N[C@@H](CC(C)C)C(=O)N1CCC[C@H]1C(=O)NCC(=O)O | broth microdilution | MRSA, cation-adjusted Mueller-Hinton broth | 16 h, 37 °C | 32 mg/L |
| CC[C@H]1OC(=O)[C@H](C)[C@@H](O[C@H]2C[C@@](C)(OC)[C@@H](O)[C@H](C)O2)[C@H](C)[C@@H](O[C@@H]2O[C@H](C)C[C@H](N(C)C)[C@H]2O)[C@](C)(OC)C[C@@H](C)C(=O)[C@H](C)[C@@H](O)[C@]1(C)O | microbial growth | BAA976 | – | 16 mg/L |
| CCCCCCCC[N+](C)(C)CCCCCCCCOc1cc(OCCCCCCCC[N+](C)(C)CCCCCCCC)cc(OCCCCCCCC[N+](C)(C)CCCCCCCC)c1.[Br-].[Br-].[Br-] | – | HA-MRSA ATCC 33591 | – | 1 µM |
| CC[C@H]1OC(=O)[C@H](C)[C@@H](OC(=O)Cc2ccc(C(F)(F)F)cc2)[C@H](C)[C@@H](O[C@@H]2O[C@H](C)C[C@H](N(C)C)[C@H]2O)[C@](C)(OC)C[C@@H](C)C(=O)[C@H](C)[C@@H](O)[C@]1(C)O | – | DSM 20231 MSSA | – | 4 mg/L |
| CCCCCCCC[N+](C)(C)CCCCOc1cc(OCCCC[N+](C)(C)CCCCCCCC)cc(OCCCC[N+](C)(C)CCCCCCCC)c1.[Br-].[Br-].[Br-] | – | HA-MRSA ATCC 33591 | – | 2 µM |
| CC[C@H]1OC(=O)[C@H](C)[C@@H](OC(=O)Cc2cccc([N+](=O)[O-])c2)[C@H](C)[C@@H](O[C@@H]2O[C@H](C)C[C@H](N(C)C)[C@H]2O)[C@](C)(OC)C[C@@H](C)C(=O)[C@H](C)[C@@H](O)[C@]1(C)O | – | ATCC 43300 MRSA | – | > 64 mg/L |
| N=C(N)NCCC[C@@H]1NC(=O)[C@H](CCCNC(=N)N)NC(=O)[C@@H](C(c2ccccc2)c2ccccc2)NC(=O)[C@H](Cc2c[nH]c3ccccc23)NC(=O)[C@@H](C(c2ccccc2)c2ccccc2)NC(=O)[C@@H](CCCNC(=N)N)NC(=O)[C@@H](CCCNC(=N)N)NC1=O | – | ATCC 29213, MSSA | – | 4 mg/L |
